{"data": "Published values collected from several papers", "medium": "plasma", "route": "oral", "note": "Numbers after ± are the reported error."}
{"SMILES": "CCOc1c([C@H](C)n2nc(C)c3c(N)ncnc32)cc(Cl)c(F)c1[C@@H]1CNC(=O)C1", "test system": "healthy fasted humans", "conditions": "20 mg", "quantity": "Vz/F geometric mean", "result": "60 L"}
{"SMILES": "CN(C)C/C=C/C(=O)Nc1cc2c(Nc3ccc(F)c(Cl)c3)ncnc2cc1O[C@H]1CCOC1", "test system": "human", "conditions": "10 mg once daily, day 27, geometric mean", "quantity": "Vz/F at steady state", "result": "16100 L"}
{"SMILES": "CCOc1ccc(Cc2cc([C@]34OC[C@](CO)(O3)[C@@H](O)[C@H](O)[C@H]4O)ccc2Cl)cc1", "test system": "human, type 2 diabetes, mild renal impairment", "conditions": "15 mg", "quantity": "Vz/F", "result": "255 L"}
{"SMILES": "Cc1nc(-c2ccc(OCC(C)C)c(C#N)c2)sc1C(=O)O", "test system": "human adults", "conditions": "10 to 160 mg once daily, fed, PopPK post hoc", "quantity": "Vz/F at steady state", "result": "94.5 ± 22.4 L"}
{"SMILES": "CNC(=O)c1c(C)oc2cc(Oc3ncnc4cc(OC)c(OC)cc34)ccc12", "test system": "human", "conditions": "5 mg, fasted, with: rabeprazole 40 mg", "quantity": "Vz/F", "result": "46.1 L"}
{"SMILES": "O=C(c1cccnc1-c1ccncc1)N1CCC(O)(Cc2ccccc2)CC1", "test system": "healthy human", "conditions": "400 mg once daily, day 1, arithmetic mean", "quantity": "Vz/F", "result": "1330 L"}
{"SMILES": "CC(C)NC[C@@H](C(=O)N1CCN(c2ncnc3c2[C@H](C)C[C@H]3O)CC1)c1ccc(Cl)cc1", "test system": "human, Moderate hepatic function (Child-Pugh)", "conditions": "100 mg single dose, geometric mean", "quantity": "Vz/F", "result": "14000 L"}
{"SMILES": "CNC(=O)c1ccc(-c2cnc3ncc(Cc4ccc5ncccc5c4)n3n2)cc1F", "test system": "human, normal hepatic function", "conditions": "200 mg single dose", "quantity": "Vz/F (mean)", "result": "655 L"}
{"SMILES": "C=CC(=O)N1CCC(CNc2ncnc(N)c2-c2ccc(Oc3ccccc3)cc2)CC1", "test system": "human", "conditions": "350 mg single dose, geometric mean", "quantity": "Vz/F", "result": "1800 L"}
{"note": "Repeated from above:"}
{"SMILES": "CCOc1c([C@H](C)n2nc(C)c3c(N)ncnc32)cc(Cl)c(F)c1[C@@H]1CNC(=O)C1", "test system": "healthy fasted humans", "conditions": "20 mg", "quantity": "Vz/F geometric mean", "result": "60 L"}
